Experimental data gathered from unrelated publications.
A part holds a random share of what one study measured. Substitutions count along the parent as printed.
Chain of UniProt Q86UE8 (whole entry, looked up): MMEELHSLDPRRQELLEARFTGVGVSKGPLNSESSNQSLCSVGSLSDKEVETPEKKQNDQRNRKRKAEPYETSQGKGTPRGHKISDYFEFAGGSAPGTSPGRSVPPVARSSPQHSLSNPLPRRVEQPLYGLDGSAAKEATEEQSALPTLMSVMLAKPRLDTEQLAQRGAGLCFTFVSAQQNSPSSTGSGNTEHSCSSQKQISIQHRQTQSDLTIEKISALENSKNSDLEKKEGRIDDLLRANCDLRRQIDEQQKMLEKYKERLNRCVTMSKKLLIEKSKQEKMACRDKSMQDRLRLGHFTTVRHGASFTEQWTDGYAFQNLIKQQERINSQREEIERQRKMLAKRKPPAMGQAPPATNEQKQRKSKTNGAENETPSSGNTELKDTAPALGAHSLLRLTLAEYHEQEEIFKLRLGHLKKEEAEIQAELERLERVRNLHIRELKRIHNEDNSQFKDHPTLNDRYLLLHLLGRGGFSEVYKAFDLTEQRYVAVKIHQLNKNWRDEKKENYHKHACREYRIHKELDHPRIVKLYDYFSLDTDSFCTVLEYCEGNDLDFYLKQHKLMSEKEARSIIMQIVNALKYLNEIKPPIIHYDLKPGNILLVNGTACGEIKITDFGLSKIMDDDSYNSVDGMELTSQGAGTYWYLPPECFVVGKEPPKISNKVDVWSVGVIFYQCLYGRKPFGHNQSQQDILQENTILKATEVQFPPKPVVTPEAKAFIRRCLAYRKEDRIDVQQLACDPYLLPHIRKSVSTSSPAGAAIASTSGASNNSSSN

Series 1
Target: inorganic phosphate, free oxyanion
Method: microfluidic competitive inhibition
Matrix: in vitro, cell-free expressed
Tested at: not given
Setting: derived from inhibition constants, unchanged parent 615000 nM
Direction: lower = stronger binding
Starting sequence: PafA, mature enzyme, eGFP fusion (Elizabethkingia meningoseptica, UniProt Q9KJX5); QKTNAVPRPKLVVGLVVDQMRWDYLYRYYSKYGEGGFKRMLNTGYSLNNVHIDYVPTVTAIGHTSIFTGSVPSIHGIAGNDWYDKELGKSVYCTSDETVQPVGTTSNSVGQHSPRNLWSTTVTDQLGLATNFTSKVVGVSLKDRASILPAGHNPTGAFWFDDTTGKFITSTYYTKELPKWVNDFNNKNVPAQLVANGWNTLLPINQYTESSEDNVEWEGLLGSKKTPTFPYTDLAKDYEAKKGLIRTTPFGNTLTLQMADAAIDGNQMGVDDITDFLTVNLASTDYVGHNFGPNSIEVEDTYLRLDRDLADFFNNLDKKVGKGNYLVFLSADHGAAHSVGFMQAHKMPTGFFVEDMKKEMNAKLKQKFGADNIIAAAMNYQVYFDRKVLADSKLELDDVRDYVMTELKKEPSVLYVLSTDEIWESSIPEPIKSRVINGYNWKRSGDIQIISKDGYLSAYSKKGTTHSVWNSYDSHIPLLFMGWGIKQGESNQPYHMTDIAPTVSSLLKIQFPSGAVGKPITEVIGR
| Change | phosphate dissociation constant |
| --- | --- |
| D53V | 344 µM |
| F368G | 589 µM |
| F160V | 415 µM |
| S418G | 644 µM |
| D23G | 304 µM |
| Y439G | 540 µM |
| D272G | 626 µM |
| R21V | 348 µM |

Series 2
Target: CCNF, cyclin fold, Cln2 fusion (human)
Method: yeast growth competition, sequencing
Matrix: yeast
Setting: strong parent motif
Baseline: not given
Direction: higher = stronger binding
Starting sequence: viral docking peptide; TSVRRALFTGGSD
| Change | normalised enrichment score |
| --- | --- |
| V3F | 4.93 |
| G10Q | 8.21 |
| G11P | 8.52 |
| S2Y | 7.55 |
| G10L | 8.67 |
| F8H | 0.797 |
| F8R | 0.456 |
| A6H | 4.77 |

Single results of other studies
| Structure (SMILES) | target | read-out | action | tested at | baseline | measurement | result |
| --- | --- | --- | --- | --- | --- | --- | --- |
| O=C(Nc1ccc(Oc2ccc(F)cc2)cc1)N1CCc2ncccc2[C@H]1c1ccc(F)cc1 | DRD5 (Homo sapiens, UniProt P21918) | ligand displacement |  | 10 µM |  | inhibition | 29.1% |
| O=C1NC(=O)c2c1c1c3ccccc3n3c1c1c2c2ccccc2n1[C@H]1CC[C@@H]3O1 | TLK2 (Homo sapiens, UniProt Q86UE8) | enzyme activity | inhibitor | 0.5 µM | control | remaining activity | 14.1% |

A few entries again (series 1):
| Change | phosphate dissociation constant |
| --- | --- |
| F160V | 415 µM |
| S418G | 644 µM |
| D23G | 304 µM |
